Measurements pooled from the literature.
Numbers after ± are the reported error. Values after ≈ are worked out from the molar mass of the structure shown.
Cell line: HeLa

The cytotoxic concentration of `O=[N+]([O-])c1ccc(NC(=S)N/N=C/c2cccs2)cc1` is reported as 20 µM (altered cell morphology, microscopy; confluent cultures).
Under “mitochondrial membrane potential”, `CO.Cc1ccc2c(Cl)cc(Cl)c([O-])c2n1.Cc1ccc2c(Cl)cc(Cl)c([O-])c2n1.[Co+2].c1ccc2nc3c4cccnc4c4ncccc4c3nc2c1` is recorded as “decreased” (0.80 nM, 24 h).
`C=C1C(=O)OC2C=C(C)CCC=C(C(=O)OC(C)C(C)(O)C(=O)OC3C(OC(C)=O)C(C(=O)OC)=CCCC(C)=CC4OC(=O)C(=C)C43)CC(OC(=O)C(C)=CC)C12` (centres unmarked) has a caspase-3/7 activity of 4.27 fold (3 µM, 24 h; relative to: untreated).
`CC(C)CCOc1cc(C[n+]2cn(CCC(C)C)c3ccccc32)c(OCCC(C)C)c2ccccc12` — result for “late apoptotic cells increase”: 6.3% (annexin V/PI flow cytometry; 5 µM, 24 h; relative to: DMSO).
`NC(=S)N/N=C/c1cc(Cl)ccc1O` — result for “reduction in H2O2 level”: roughly 15% (DCFDA flow cytometry; 0.1 µM, 24 h; relative to: untreated cells).
`Cc1cc(/C=C2\CN(C(C)C)C/C(=C\c3cc(C)c(O)c(C)c3)C2=O)cc(C)c1O` has an apoptotic cells of 18.9 ± 2.11% (annexin V/PI flow cytometry; 5 µM, 24 h).
The EC50 of `C[C@@H]1O[C@H]2O[C@@H]3C4(O)C(=O)c5cccc(O)c5C(=O)C4(O)O[C@]3(C)[C@]21O` (some centres unmarked) is reported as 30.5 µg/mL (≈ 83.8 µM) (cell growth or viability, MTT; 48 h).
With `O=c1c(Br)c2oc3c(CN(Cc4ccccn4)Cc4cnccn4)c(O)ccc3nc-2c2ccccc12` the fluorescence increase was roughly 6 fold (fluorescence microscopy; 5 µM, 5 min, added: 25 µM Zn2+ pyrithione).
With `O=c1c(/C=N/NC(=S)N/N=C/c2ccccc2O)coc2ccccc12` the superoxide level was 150 to 160% (DHE flow cytometry; 1 µM, 24 h; relative to: control).
Under “minimal cytotoxic concentration”, `O=[N+]([O-])c1ccc(NC2=N[N+](=Cc3cccs3)[Pd-]([Cl])([Cl])[S]2)cc1` is recorded as greater than 100 µM (altered cell morphology, microscopy; confluent cultures).
`S=c1n(-c2ccccc2)c2c3ccccc3nc3[n+]2[n]1[Ir-3]12([S]3)([c]3cccc4ccc5ccc[n+]1c5c34)[c]1cccc3ccc4ccc[n+]2c4c13` has an apoptotic cells of 56.2% (4.5 nM, light irradiation).
`CC(C)(C)c1cc2c(O)c(c1)Cc1cc(C(C)(C)C)cc(c1OCC(=O)NCc1cccnc1)Cc1cc(C(C)(C)C)cc(c1O)Cc1cc(C(C)(C)C)cc(c1OCC(=O)NCc1cccnc1)COC2` gave an inhibition of 64% (cell growth or viability, MTT; 15 µM, 72 h).
Under “late apoptotic or necrotic cells”, `CCCCN(CCCC)CC(O)COc1c2ccoc2c(OC)c2oc(CC)cc(=O)c12` (centres unmarked) is recorded as 44.9% (annexin V/7-AAD flow cytometry; IC50, 72 h).
For `CC(C)(C)c1ccc(C(=O)Oc2ccc3c(-c4ccccc4C(=O)O)c4ccc(=O)cc-4oc3c2)cc1`, “mRNA m6A level” read “increased” (HPLC-MS/MS; 50 µM, 24 h).
The selectivity index of `CC1=[N+]2N=C(c3ccccc3)[O][Pd-2]2([Cl])[O+]=C2Oc3ccccc3C=C21` (centres unmarked) is reported as 5.31 (cytotoxicity, MTT; 24 h; relative to: WI-38 over HeLa IC50).
`CNC(=O)c1c(C)oc2cc(Oc3ncnc4cc(OC)c(OCCCCCCC(=O)NO)cc34)ccc12`: “cells in S phase” 23.5% (PI staining flow cytometry; 3 µM, 48 h).
The apoptotic cells of `COc1cc2c(=O)c(-c3ccc4c(c3)OCO4)coc2c2c1OC(C)(C)C=C2` is reported as 43.8% (annexin V/PI flow cytometry; 10 µM, 48 h).

Some of these lines once more:
The selectivity index of `CC1=[N+]2N=C(c3ccccc3)[O][Pd-2]2([Cl])[O+]=C2Oc3ccccc3C=C21` (centres unmarked) is reported as 5.31 (cytotoxicity, MTT; 24 h; relative to: WI-38 over HeLa IC50).
`CNC(=O)c1c(C)oc2cc(Oc3ncnc4cc(OC)c(OCCCCCCC(=O)NO)cc34)ccc12`: “cells in S phase” 23.5% (PI staining flow cytometry; 3 µM, 48 h).
The apoptotic cells of `COc1cc2c(=O)c(-c3ccc4c(c3)OCO4)coc2c2c1OC(C)(C)C=C2` is reported as 43.8% (annexin V/PI flow cytometry; 10 µM, 48 h).
